# Published values gathered from unrelated publications.
# Lines come from different studies, so protocols differ. “And” joins repeats or separate records; there may be more than shown. ± marks the error that the study gave.
# Cell line: MDA-MB-231
Compound,test,conditions,how to read,measurement,result
COc1c(C)c(OC(C)=O)c(C)c(O)c1C(=O)/C=C/c1ccccc1,,,relative to: CL over MDA-MB-231,selectivity index,0.77
COC(=O)CNC(=O)C(=O)OC,immunoblot,"concentration not given, 12 h",,H3K4me3 level,increased
CCn1c2ccccc2c2cc(-n3nncc3-c3ccccc3)ccc21,,"concentration not given, 24 h",,detached cells,20 to 42%
CC(C)(C)OCC(NC(=O)c1cc(Cl)ccc1OCCNC(=O)OC(C)(C)C)C(=O)Nc1ccc([N+](=O)[O-])cc1Cl (stereo in doubt),,"up to 10 µM, 72 h",,antiproliferative activity,inactive
CCCNC(=O)[C@H]1O[C@@H]1C(=O)N[C@H](C(=O)N1CCC[C@H]1C(=O)OC)[C@@H](C)CC,MTT,"50 µM, 4 h, light and dark",,cytotoxicity,not toxic
CCn1cc(-c2cc(Cn3ccoc3=N)cc3c2CCN([C@@H](C)c2cc(OC)ccn2)C3=O)c(C(F)(F)F)n1,"cell growth, inhibitor",120 h,,EC50,63.6 nM
CCCCN1CCN(c2ccc3[nH]c(-c4ccc5[nH]c(-c6ccc(OCC)cc6)nc5c4)nc3c2)CC1,SRB,"10 µM, 48 h",,growth percent,111%
Cc1c(Cc2ccccc2)c(=O)oc2c(C)c(OCC(=O)NN=Cc3ccc(Cl)cc3)ccc12,MTT,,,IC50,37.3 µg/mL
O=C(NCc1ccc(CNS(=O)(=O)c2ccc3c(c2)CCO3)cc1)c1scc2c1OCCO2,Matrigel invasion,"0.1 µM, 22 h, added: CXCL12α 200 ng/mL",,inhibition,> 60%
COc1c(C)c(OC(C)=O)c(C)c(OC(C)=O)c1C(=O)/C=C/c1ccccc1,,,relative to: CL over MDA-MB-231,selectivity index,0.92
COc1cccc(Oc2ccccc2NC(=O)CNC(=O)c2cccc3ccccc23)c1,SRB,48 h,,GI50,776 nM
CCCCCCCCCCCCCCCc1cccc(O)c1C(=O)O,flow cytometry,"10 µM, 24 h",,cell cycle progression,no effect
CN1CCN(c2ccc3[nH]c(-c4ccc5[nH]c(-c6ccc(C(F)(F)F)cc6)nc5c4)nc3c2)CC1,SRB,"10 µM, 48 h",,growth percent,82%
Cc1cc(=O)[nH]c(=O)n1Cc1cn(-c2cc3ccccc3oc2=O)nn1,NCI60 single dose screen,10 µM,,growth percentage,98.7%
O=C(Cc1ccccc1)Nc1nnc(CCSCCc2nnc(NC(=O)Cc3ccccc3)s2)s1,"cell proliferation, inhibitor, cell counting",144 h,,EC50,2100 nM
CCCCN1CCN(c2ccc3[nH]c(-c4ccc5[nH]c(-c6cc(OC)c(OC)c(OC)c6)nc5c4)nc3c2)CC1,SRB,"10 µM, 48 h",,growth percent,78.9%
Nc1ccccc1NC(=O)c1ccc(CNc2ccc(NC3=C(Cl)C(=O)c4cccnc4C3=O)cc2)cc1,"annexin V/PI staining, measured: annexin V-/PI+","8 µM, 72 h",,necrotic cells,0.39%
Cc1cc(C)n(C(=S)[S][Au][PH](CCCCCC[PH]([Au][S]C(=S)n2nc(C)cc2C)(c2ccccc2)c2ccccc2)(c2ccccc2)c2ccccc2)n1,cell growth,,,GI50,1420 nM
Cc1c(Cc2ccccc2)c(=O)oc2c(C)c(OCC(=O)NN=Cc3ccco3)ccc12,"cell viability, MTT",,,IC50,11700 nM
O=C(Nc1ccc2[nH]c(C(=O)NO)cc2c1)c1ccccn1,Matrigel invasion,"concentration not given, 24 h",relative to: DMSO,cell invasion,no effect
CCCCCCCCCC(=O)Oc1c(C)c(O)c(C(=O)/C=C/c2ccccc2)c(OC)c1C,,,relative to: CL over MDA-MB-231,selectivity index,1.14
O=c1ccn(Cc2cn(-c3cc4ccccc4oc3=O)nn2)c(=O)[nH]1,NCI60 single dose screen,10 µM,,growth percentage,93.1%
Cc1cc(NS(=O)(=O)c2ccc(NC(=O)/C(C#N)=C/c3ccc(N4CCOCC4)cc3)cc2)no1,"cytotoxicity, MTT",,relative to: HSF over MDA-MB-231 IC50,selectivity index,> 2.4
Cc1nc(Nc2ncc(C(=O)Nc3c(C)cccc3Cl)s2)cc(N2CCN(CCO)CC2)n1,,3D cell culture,,GI50,12 ± 4 nM
C#C[C@@]1(O)[C@@H](CO)O[C@@H](n2cc(Cl)c3c(N)ncnc32)[C@@H]1O,"cell growth, SRB",,,TGI,1010 nM and 893 nM
Cc1[nH]c2ccccc2c1C1=C(Cl)C(=O)C(Cl)=C(N2CCOCC2)C1=O,JC-1,"0.1 and 1 µM, 24 h",,mitochondrial membrane potential,decreased
CCc1c(C)c2ccc(OCC=Cc3ccccc3)c(C)c2oc1=O,MTT,,,IC50,194 µg/mL
CCCN1CCN(c2ccc3[nH]c(-c4ccc5[nH]c(-c6ccc(C(F)(F)F)cc6)nc5c4)nc3c2)CC1,SRB,"10 µM, 48 h",,growth percent,-86.9%
CC(C)[C@H](NC(=O)c1cc(Cl)ccc1OCCNC(=O)OC(C)(C)C)C(=O)Nc1ccc([N+](=O)[O-])cc1Cl,Western blot,"up to 10 µM, 24 h",,total STAT3 level,no effect
O=P(O)(O)C(O)(Cn1ccnc1)P(=O)(O)O,AlamarBlue,"3.8 µM, 24 h",relative to: control,viability,97 ± 2%
C=C1CN(S(=O)(=O)c2ccc(OC)cc2)CCCN(CC2CCCCC2)CCCN(S(=O)(=O)c2ccc(N(C)C)cc2)C1.Cl,,"1 µM, 48 h, added: progranulin 1 µg/mL",,mammosphere formation,inhibited
CC(C)[C@H](NC(=O)c1cc(Cl)ccc1OCCN)C(=O)Nc1ccc([N+](=O)[O-])cc1Cl,,"up to 10 µM, 72 h",,antiproliferative activity,inactive
CO[C@H]1[C@H](O[C@H]([C@H]2O[C@@H](n3ccc(=O)[nH]c3=O)[C@H](O)[C@@H]2O)[C@H](NCCCNC(=O)[C@@H](NC(=O)[C@@H](NC(=O)N[C@H](C(=O)O)C(C)C)[C@@H]2CCN=C(N)N2)[C@@H](OC(=O)CCCCCCCCCCCCN(O)C(=N)N)C(C)C)C(=O)O)O[C@H](CN)[C@H]1O,Boyden chamber,"0.4 µM, 24 h",relative to: untreated,cell migration,< 45%
OCc1ccc(Nc2ccc3c(Nc4cccc(C(F)(F)F)c4)ncnc3c2)cc1,annexin V-PE/DAPI,"concentration not given, 24 h",,live cells,67.7%
O=C1C[C@@H](c2ccc(O)cc2)Oc2cc(O)cc(O)c21,annexin V/PI,"concentration not given, 48 h",,apoptotic cells,19.3%
C#C[C@@]1(O)[C@@H](CO)O[C@@H](n2cc(I)c3c(N)ncnc32)[C@@H]1O,"cell growth, SRB",,,TGI,> 100000 nM

# A few entries again:
Compound,test,conditions,how to read,measurement,result
CCCCN1CCN(c2ccc3[nH]c(-c4ccc5[nH]c(-c6cc(OC)c(OC)c(OC)c6)nc5c4)nc3c2)CC1,SRB,"10 µM, 48 h",,growth percent,78.9%
Nc1ccccc1NC(=O)c1ccc(CNc2ccc(NC3=C(Cl)C(=O)c4cccnc4C3=O)cc2)cc1,"annexin V/PI staining, measured: annexin V-/PI+","8 µM, 72 h",,necrotic cells,0.39%
Cc1cc(C)n(C(=S)[S][Au][PH](CCCCCC[PH]([Au][S]C(=S)n2nc(C)cc2C)(c2ccccc2)c2ccccc2)(c2ccccc2)c2ccccc2)n1,cell growth,,,GI50,1420 nM
Cc1c(Cc2ccccc2)c(=O)oc2c(C)c(OCC(=O)NN=Cc3ccco3)ccc12,"cell viability, MTT",,,IC50,11700 nM
O=C(Nc1ccc2[nH]c(C(=O)NO)cc2c1)c1ccccn1,Matrigel invasion,"concentration not given, 24 h",relative to: DMSO,cell invasion,no effect
CCCCCCCCCC(=O)Oc1c(C)c(O)c(C(=O)/C=C/c2ccccc2)c(OC)c1C,,,relative to: CL over MDA-MB-231,selectivity index,1.14
